Literature values that unrelated publications cite.
Sequence of UniProt Q15375 (whole entry, looked up): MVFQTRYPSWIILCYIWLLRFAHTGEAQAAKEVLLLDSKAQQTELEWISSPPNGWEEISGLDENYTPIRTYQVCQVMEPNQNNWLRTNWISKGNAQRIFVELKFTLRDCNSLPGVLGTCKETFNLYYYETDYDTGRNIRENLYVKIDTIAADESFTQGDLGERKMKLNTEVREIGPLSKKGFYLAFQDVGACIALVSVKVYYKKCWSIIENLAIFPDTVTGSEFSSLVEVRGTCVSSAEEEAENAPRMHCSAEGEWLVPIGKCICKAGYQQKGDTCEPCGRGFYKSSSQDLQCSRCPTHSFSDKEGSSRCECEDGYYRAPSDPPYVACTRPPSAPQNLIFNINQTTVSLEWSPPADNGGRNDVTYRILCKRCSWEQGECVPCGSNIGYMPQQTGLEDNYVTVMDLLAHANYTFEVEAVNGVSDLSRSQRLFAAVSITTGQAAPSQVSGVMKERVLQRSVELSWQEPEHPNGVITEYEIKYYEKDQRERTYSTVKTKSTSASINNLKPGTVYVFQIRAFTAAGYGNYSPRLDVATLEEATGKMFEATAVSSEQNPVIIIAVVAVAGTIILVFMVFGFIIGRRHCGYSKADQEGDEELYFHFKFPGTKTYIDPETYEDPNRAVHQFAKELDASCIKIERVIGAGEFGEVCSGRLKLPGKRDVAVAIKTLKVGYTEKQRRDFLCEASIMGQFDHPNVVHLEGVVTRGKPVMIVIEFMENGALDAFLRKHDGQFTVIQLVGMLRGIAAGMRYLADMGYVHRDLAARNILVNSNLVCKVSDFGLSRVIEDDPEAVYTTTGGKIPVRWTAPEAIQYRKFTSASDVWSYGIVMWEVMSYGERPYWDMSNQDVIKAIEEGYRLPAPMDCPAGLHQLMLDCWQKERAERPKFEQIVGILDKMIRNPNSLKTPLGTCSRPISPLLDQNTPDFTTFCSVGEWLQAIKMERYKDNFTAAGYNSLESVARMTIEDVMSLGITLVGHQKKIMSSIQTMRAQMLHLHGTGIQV

Compound	tested on	assay	setting	scale	endpoint	result
CCCCCCCCCCCCOS(=O)(=O)O	–	–	–	–	pKa	-1.5
Cc1ncc(CO)c(C(=O)O)c1O	–	–	–	–	pKa	5.4
Cc1cc(=O)oc2cc(O)ccc12	–	–	–	–	pKa	~8
CNC(=C[N+](=O)[O-])NCCSCc1ccc(CN(C)C)o1	–	–	–	–	pKa	8.7
O=C1CN(/N=C/c2ccc([N+](=O)[O-])o2)C(=O)N1	–	–	–	–	pKa	~7.2
N=C(N)NCCC[C@H](N)C(=O)O	–	–	–	–	pKa	~12
CC(O)C(C)n1ncn(-c2ccc(N3CCN(c4ccc(OCC5COC(Cn6cncn6)(c6ccc(Cl)cc6Cl)O5)cc4)CC3)cc2)c1=O (stereo not drawn)	–	–	Simcyp input parameter	–	pKa	3.8
Cn1cncc1[C@@](N)(c1ccc(Cl)cc1)c1ccc2c(c1)c(-c1cccc(Cl)c1)cc(=O)n2C	–	–	ionisation site 2	–	pKa	3.3
O=C(O)C(F)(F)F	–	differential refractometry, literature value	–	–	pKa	1.1
C=CC(=O)Nc1cc(Nc2nccc(-c3cn(C)c4ccccc34)n2)c(OCC(F)(F)F)nc1N(C)CCN(C)C	–	–	basic group	–	pKa	8.69
NS(=O)(=O)c1cc2c(cc1Cl)N=CNS2(=O)=O	–	–	–	–	pKa	6.85
Cc1ccc(C)c(OCCCC(C)(C)C(=O)O[C@@H]2O[C@H](C(=O)O)[C@@H](O)[C@H](O)[C@H]2O)c1	–	–	monoprotic acid	–	pKa	3.23
NCc1ccc(F)cc1	–	–	amine, free unbound form	–	pKa	9.3
C=C(C)C(=O)OCCN	–	–	–	–	pKa	~9
NCc1ccc(S(N)(=O)=O)cc1	–	refers to: sulfonamide group	–	–	pKa	10.1
Nc1cc(C(F)(F)F)c(-c2nc(N3CCOCC3)nc(N3CCOCC3)n2)cn1	Ephrin type-A receptor 7 (EPHA7, Homo sapiens, UniProt Q15375)	enzyme activity	10 µM	reference: untreated	remaining activity	93%
Cc1nn(C)cc1S(=O)(=O)NC(=O)c1ccc(-n2ccc(OCC(C)(C)C(F)(F)F)n2)nc1N1C[C@@H](C)CC1(C)C	–	–	monoprotic acid	–	pKa	5.04
N[C@@H](CC(=O)N1CCn2c(nnc2C(F)(F)F)C1)Cc1cc(F)c(F)cc1F	–	–	–	–	pKa	8.78
NCc1ccc(C(F)(F)F)cc1	–	–	amine, free unbound form	–	pKa	8.8
CC(=O)c1cc(C(=O)N[C@@H](C)Cn2ccc(-c3ccc(C#N)c(Cl)c3)n2)[nH]n1	–	–	monoprotic base	–	pKa	2.4
O=C(NO)c1ccc(F)cc1	–	–	hydroxamic acid	–	pKa	8.81

Some of these lines once more:
Compound	tested on	assay	setting	scale	endpoint	result
NS(=O)(=O)c1cc2c(cc1Cl)N=CNS2(=O)=O	–	–	–	–	pKa	6.85
NCc1ccc(F)cc1	–	–	amine, free unbound form	–	pKa	9.3
C=C(C)C(=O)OCCN	–	–	–	–	pKa	~9
